# Measured values pooled from the literature.
# Protocols differ between the studies behind these lines. “And” joins repeats or separate records; there may be more than shown.
# Cell line: UACC-62
Structure (SMILES),test,conditions,scale,measurement,value
Cn1cncc1C1=CN(c2ncnc3[nH]cnc23)CCS1,,melanoma cell line,,TGI,42.7 µM
CCOc1ccc(-c2nc3cc(-c4nc5cc(N6CCN(C)CC6)ccc5[nH]4)ccc3[nH]2)cc1OCC,SRB,"10 µM, 48 h",,growth percent,-14.3%
C#C[C@@]1(O)[C@@H](CO)O[C@@H](n2cc(F)c3c(N)ncnc32)[C@@H]1O,SRB,NCI-60 screen,,TGI,1.47 µM
CCCCN1CCN(c2ccc3[nH]c(-c4ccc5[nH]c(-c6ccc(OCC)cc6)nc5c4)nc3c2)CC1,SRB,"10 µM, 48 h",,growth percent,59.9%
Cc1cc(C)n(-c2nc(-c3ccc(Cl)cc3)c3c(NC(=O)c4ccccc4)nnc-3[nH]2)n1,SRB,"10 µM, NCI60 single-dose screen",reference: untreated,cell growth,76.8%
COC(=O)/C=C1\C(=O)C=C2C3CC4CC(CCC4(C)N21)C3(C)NC(C)=O (centres unmarked),cell growth,NCI screen,,IC50,18.1 µM
Cc1cc(=O)[nH]c(=O)n1Cc1cn(-c2c3ccccc3nc3ccccc23)nn1,NCI60 single-dose screen,10 µM,,growth percentage,85.2%
CSc1nc(-c2ccc(Cl)cc2)c2c(NC(=O)c3ccccc3)nnc-2[nH]1,SRB,"10 µM, NCI60 single-dose screen",reference: untreated,cell growth,94.2%
S=C([S][Au-][P+](CCCCCC[P+]([Au-][S]C(=S)n1cccn1)(c1ccccc1)c1ccccc1)(c1ccccc1)c1ccccc1)n1cccn1,"cell growth, NCI-60 screen",melanoma,,log TGI,> -4 log10 M
CCCCN1CCN(c2ccc3[nH]c(-c4ccc5[nH]c(-c6ccc(OCC)c(OCC)c6)nc5c4)nc3c2)CC1,SRB,"10 µM, 48 h",,growth percent,17.7%
CCOC(=O)CSc1nc(-c2ccc(Cl)cc2)c2c(NC(=O)c3ccccc3)nnc-2[nH]1,SRB,"10 µM, NCI60 single-dose screen",reference: untreated,cell growth,92.4%
O=C1NC(c2ccccc2)(c2ccccc2)C(=O)N1Cc1cn(-c2c3ccccc3nc3ccccc23)nn1,NCI60 single-dose screen,10 µM,,growth percentage,72.4%
O=C(Nc1nnc2n3c(=S)[nH][nH]c3nc(-c3ccc(Cl)cc3)c1-2)c1ccccc1,SRB,"10 µM, NCI60 single-dose screen",reference: untreated,cell growth,93.5%
CCCN1CCN(c2ccc3[nH]c(-c4ccc5[nH]c(-c6ccc(C(F)(F)F)cc6)nc5c4)nc3c2)CC1,SRB,"10 µM, 48 h",,growth percent,72.9%
C#C[C@@]1(O)[C@@H](CO)O[C@@H](n2cc(I)c3c(N)ncnc32)[C@@H]1O,SRB,NCI-60 screen,,TGI,2.38 µM and 3.23 µM
O=c1ccn(Cc2cn(-c3c4ccccc4nc4ccccc34)nn2)c(=O)[nH]1,NCI60 single-dose screen,10 µM,,growth percentage,91.4%
CCCCN1CCN(c2ccc3[nH]c(-c4ccc5[nH]c(-c6ccc(C(F)(F)F)cc6)nc5c4)nc3c2)CC1,SRB,"10 µM, 48 h",,growth percent,-31.6%
Cc1cc(-c2ccccc2)n(-c2nc(-c3ccc(Cl)cc3)c3c(NC(=O)c4ccccc4)nnc-3[nH]2)n1,SRB,"10 µM, NCI60 single-dose screen",reference: untreated,cell growth,77.8%
CCCN1CCN(c2ccc3[nH]c(-c4ccc5[nH]c(-c6cc(OC)c(OC)c(OC)c6)nc5c4)nc3c2)CC1,SRB,"10 µM, 48 h",,growth percent,35.8%
C#C[C@@]1(O)[C@@H](CO)O[C@@H](n2cc(Cl)c3c(N)ncnc32)[C@@H]1O,SRB,NCI-60 screen,,TGI,0.383 µM

# Excerpt of the above:
Structure (SMILES),test,conditions,scale,measurement,value
COC(=O)/C=C1\C(=O)C=C2C3CC4CC(CCC4(C)N21)C3(C)NC(C)=O (centres unmarked),cell growth,NCI screen,,IC50,18.1 µM
Cc1cc(=O)[nH]c(=O)n1Cc1cn(-c2c3ccccc3nc3ccccc23)nn1,NCI60 single-dose screen,10 µM,,growth percentage,85.2%
CSc1nc(-c2ccc(Cl)cc2)c2c(NC(=O)c3ccccc3)nnc-2[nH]1,SRB,"10 µM, NCI60 single-dose screen",reference: untreated,cell growth,94.2%
